Experimental data from different studies.
A part holds a random share of what one study measured. Changes are numbered by the printed parent chain.

Series 1 — technique: competition protein-binding microarray; molecule type: double-stranded DNA, one strand shown; sample: in vitro; concentration: 2 µM; added: Cbf1 competitor, 0.05 µM; reading: higher = stronger binding; endpoint: fluorescence intensity; shared flanks, not repeated: … GTCTTGATTCGCTTGACGCTGCTG
Target: Phosphate system positive regulatory protein PHO4, full length, GST-tagged (PHO4, Saccharomyces cerevisiae, UniProt P07270, residues 1-312)
Setting: whole 60-bp probe, lowest competitor level
Target sequence (chain): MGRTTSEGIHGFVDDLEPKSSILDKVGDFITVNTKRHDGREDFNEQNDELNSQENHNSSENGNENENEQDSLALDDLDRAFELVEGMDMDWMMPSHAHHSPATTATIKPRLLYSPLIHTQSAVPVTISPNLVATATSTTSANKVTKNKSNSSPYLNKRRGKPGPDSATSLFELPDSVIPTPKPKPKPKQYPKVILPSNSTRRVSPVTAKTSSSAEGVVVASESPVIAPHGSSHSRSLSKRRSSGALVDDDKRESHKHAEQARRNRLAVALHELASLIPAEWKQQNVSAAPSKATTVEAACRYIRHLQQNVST
TCTTGGTTCCAAAGCAGCGTGTTGAAGAGAGGAACC: 5450 a.u.
CTTCTGTAAATTTGACTTGTGGGTGGACGCGCCCCG: 4670 a.u.
CTTGCAGCTTTTTCTTTAAGGTAAAAATCATTTTGG: 2700 a.u.
AGTTCCTGCAGGGCCCACGTGGGGATACGGAGGCCC: 16400 a.u.
CCAAACCGAGTTTGTCACGGCATATATACTCTGGCG: 3710 a.u.
ATCCGGAGCCCTCCACGCCTGCTAGCTTTGTGTTGG: 6570 a.u.
TGAAGAGTGTTGTTTCATGTGACAGTGAATGCCATT: 5000 a.u.
AAATTACTAAGTTGAAGTGTGGGTGACGCCGTATGA: 5020 a.u.
CCGATTGATAACCATCACGCAAAAAAAAAAGATGAT: 5130 a.u.
GACTTGAAAGAACAGCACGTTTTTGTCATCGCTTAC: 14400 a.u.
TGCGCAACAACTTGCGACGTGGGTGTATGTCTAGAA: 6700 a.u.
CATACCCAACCTTGACTCGTGGGTGAAGATATTTGT: 10500 a.u.
CATACCCAACCTTGACACGTGGGTGAAGATATTTGT: 19200 a.u.
CTTCCTGTGGATTTTCACGGGCCGTCCCAAGCGCAA: 3910 a.u.
GTCTTGTCTCATTTTCACGTGGAATTCCCCACTTCA: 8920 a.u.
ATCTAAAAGTTGGATAACGTGCTTTGGAATTTCTGA: 10600 a.u.
CGGGGTTAAGTTTGTCACCTGACTTGCTTGCAGCAG: 3440 a.u.
ACCGGCAAGCGTTGGCTCATGACAACTGCCACCTCC: 3540 a.u.
AAATTACTAAGTTTTCACGTGGACTACCCCGTATGA: 12800 a.u.

Series 2 — target: CCND2, cyclin fold, Cln2 fusion (human); technique: yeast growth competition, sequencing; sample: yeast; setting: strong parent motif; relative to: not given; reading: higher = stronger binding; endpoint: normalised enrichment score
Starting sequence: E2F1 docking peptide (human); PPVKRRLDFETDH
D12F: 1.68
K4S: 1.86
D8P: 0.462
R5P: 0.00132
R5D: 0.737
L7A: 0.549
D8F: 1.22
T11S: 2.29
R6Q: 0.746
K4E: 0.665
D12P: 2.26
D12H: 1.92
D8W: 0.605
V3Q: 0.367
V3S: 1.07
K4R: 2.58
D12G: 1.97
K4L: 0.374
T11H: 2.08
L7E: 0.116
F9I: 0.291
D12I: 1.75

Series 3 — technique: universal PBM; molecule type: double-stranded DNA, one strand shown; sample: in vitro; concentration: not given; reading: higher = stronger binding; endpoint: E-score
Target: Sal-like protein 4, full length isoform B (SALL4, Homo sapiens, UniProt Q9UJQ4-2, residues 1-616)
Setting: 8-mer, flanks averaged, mean of replicates
Construct (chain): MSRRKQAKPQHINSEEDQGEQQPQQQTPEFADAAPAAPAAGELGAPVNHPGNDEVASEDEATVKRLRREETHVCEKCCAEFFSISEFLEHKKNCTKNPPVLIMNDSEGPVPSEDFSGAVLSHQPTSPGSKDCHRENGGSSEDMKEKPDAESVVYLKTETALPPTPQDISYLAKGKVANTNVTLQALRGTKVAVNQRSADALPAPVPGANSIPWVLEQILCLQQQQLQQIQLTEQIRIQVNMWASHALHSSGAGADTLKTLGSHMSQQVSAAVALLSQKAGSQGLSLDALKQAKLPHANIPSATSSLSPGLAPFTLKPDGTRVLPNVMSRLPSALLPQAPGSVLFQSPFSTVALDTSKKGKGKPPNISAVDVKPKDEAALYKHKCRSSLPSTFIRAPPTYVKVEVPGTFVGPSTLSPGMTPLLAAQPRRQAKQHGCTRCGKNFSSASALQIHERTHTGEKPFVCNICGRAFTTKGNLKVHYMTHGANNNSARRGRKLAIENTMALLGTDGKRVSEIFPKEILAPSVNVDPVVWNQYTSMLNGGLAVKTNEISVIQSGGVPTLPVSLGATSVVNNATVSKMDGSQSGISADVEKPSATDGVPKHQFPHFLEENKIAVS
AAGATTTA: 0.22
CATCTTCA: 0.0001
TTATGGAA: 0.335
AGTGGTAG: -0.0489
ACTCCCTC: -0.299
AGCTTGGA: -0.263
CCTTTGAA: -0.0187
GGTCGCTA: -0.273
CTCAGCGC: -0.224
AATTGGAT: 0.25
ACATGAGG: 0.0405
GACGCAAA: -0.258
CTCATCAC: -0.0737
ACTAAGCG: -0.235
CAACGTGA: -0.0781
AGGGCTTG: -0.139
CTTCCAGA: -0.149
ACTTGGAC: -0.103
ACTGCGGA: -0.201
CCCCAAGA: -0.118

Series 4 — technique: RNA Bind-n-Seq; molecule type: RNA; sample: in vitro; concentration: 365 nM; relative to: no-protein control; reading: higher = stronger binding; endpoint: RBNS enrichment (R)
Target: RNA binding protein fox-1 homolog 2, RRM domain, GST-SBP tag (RBFOX2, Homo sapiens, UniProt O43251-10, residues 100-194)
Setting: natural RNA segment, single round, ends assumed
Shared flanks, not repeated: GGGAGUUCUACAGUCCGACGAUC … UGGAAUUCUCGGGUGCCAA
AUGAUGGUACAAUUUAAAAUCUUAGUCAACUUCUGUAGAAAGUUUUCUCUAUGAAAGUAAAGCUGUUUGAAAAAUUAUUAUUUUUUUACAGAUCUUUCUAUAAAAAAUAA: 0.868
AGGGGAAUUUAGAGGGAAAAAAAAUCCAUGUUUUCUAUUUCCCAGGUUUUUAAAAAGUAGCUCUUCCCCAACCCCGUUGCUAGCUUGUUGCAAUAUAAAAGCCCUGGUGC: 0.642
UCCUGCGACUGCAGGCACUGGUCAUUUUCUCAUGUAGCUGUCUUUUCAGUUAUGGUAAACUCUUAAAGUUCAGAACACUCAACAGAUUCCUUCAGUGAUAUACUUGUUCG: 0.38
GCGCUUACGGGCCCCAGGUGCCUACUAGGCUGCCUUCCUCUUCCCCGCUGUCAGUCUGUGUCCUCCACGUGCUUAUUUCCUGUGGUGAGAGCAGUUGUGGUGUUUGUAUA: 0.438
CUCUUCCUUCUGCUGUGUUCCUAUAGCCACUGGGCUAAUCUCCCCCUUGCUUUAGGCUGUAUAUAGCCCCCCCCAACCCCCCAGCACAGAUCCCUGCCCAUGCUGUUCCC: 0.879
AAACCUUUUCAGAUUUUUCAUCUGAUUUGUUCUUGCAGAUGUUCUUCUAUCAAAUACCUUAUUUUACCUUACAGAUAUUUGUUGCACAGGCAGAUACUGCUGUAUUUAGA: 0.434
AGCUAAGCUUGCUUUGCAGGGCAGACACCUGGGACAGCCUUCCUCCCUCAUGUUUGCUGGGACACUGCUGAGCACCCCUUGCUUACUUAGCUCAGUGAUGUUCCAGCUCC: 0.772
AAGGGGCUUCUCCCUUUCCUUGAGCUCUCUGGACACUGCAGAGGACCCAUGGCCAUGGAACCCUGAAGAAGCAUGUCUGGCCGCCUCUGAGCUCCUCCCACCCUCCUCCA: 3.46
